Assay results collected from several papers.
Positions count from the first letter of the parent shown. ± marks the error that the study gave.
Heat shock factor protein HSF8: Heat shock factor protein HSF8 (Solanum lycopersicum, UniProt Q40152)
Ovol1: Ovol1 (Mus musculus, UniProt Q9WTJ2)
WDR33 full length assumed: WDR33 full length assumed (Homo sapiens, UniProt Q9C0J8)
WRKY45-1: WRKY45-1 104-182 (Oryza sativa, UniProt Q5W6D6)
bin: bin 311-408 (Drosophila melanogaster, UniProt Q9VS05)
P1: METTL9 full-length, 1-318 (Homo sapiens); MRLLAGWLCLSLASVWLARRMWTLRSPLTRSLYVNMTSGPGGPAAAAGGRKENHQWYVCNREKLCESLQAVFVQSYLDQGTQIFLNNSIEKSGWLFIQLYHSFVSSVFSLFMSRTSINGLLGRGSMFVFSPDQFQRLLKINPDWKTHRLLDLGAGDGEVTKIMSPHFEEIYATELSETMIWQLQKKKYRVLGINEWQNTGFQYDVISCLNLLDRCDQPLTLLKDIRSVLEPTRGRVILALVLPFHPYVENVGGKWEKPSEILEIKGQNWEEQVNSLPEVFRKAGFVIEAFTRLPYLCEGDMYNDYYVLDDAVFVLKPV

TGATATAATCTTGATCATGTTTGTTACACTTGTCA (dsDNA)
binding (Heat shock factor protein HSF8; EMSA; double-stranded DNA, one strand shown): no binding

CCTTCATCAAAGCCGTTACTTTGAACACAG (dsDNA)
binding (Ovol1; EMSA; double-stranded DNA, one strand shown): binds

GCAUGCGACCUUUCGAGGUCGCAUGC (hairpin RNA; 5'-OH, 11 bp, blunt)
binding (RIGI 2-925 (Homo sapiens, UniProt O95786); NMR; folded RNA; no nucleotide): binds

GAATCTTGGAAGCATACAATGTGGAGAC (ssDNA)
binding (ZTA1 1-336 (Komagataella phaffii, UniProt F2QTB9); EMSA; single-stranded DNA): binds

SULT1E1 (Homo sapiens, UniProt P49888)
Vmax/Km (O=C(O[C@@H]1Cc2c(O)cc(O)cc2O[C@@H]1c1cc(O)c(O)c(O)c1)c1cc(O)c(O)c(O)c1; steady-state kinetics; pH 7.4, not purified): 2540 µL/min/mg

GGGUAACCAUUAUAACCUGCAAUAAACAACUUAACAACAC (ssRNA)
binding (WDR33 full length assumed; UV cross-linking; RNA; within CPSF complex): binds

TAACAGTCACCCCCCAACTAAC (dsDNA)
binding (TFAM residues 43-220 del221-246 (Homo sapiens, UniProt Q00059); EMSA; double-stranded DNA, one strand shown): binds

GTGTTAGTTGGGGGGTGACTGTTAA (dsDNA; 25 bp duplex)
Kd (TFAM 43-246 (Homo sapiens, UniProt Q00059); FRET; double-stranded DNA, one strand shown; apparent, cooperative Hill model): 0.0044 ± 0.0003 µM

AGTATGTGACAGCC (dsDNA)
binding (WRKY45-1; EMSA; double-stranded DNA, one strand shown): no binding

GGGUAACCAUUAUAACCUCCAAUAAAGAACUUAACAACAC (ssRNA)
binding (WDR33 full length assumed; UV cross-linking; RNA; within CPSF complex): binds

P1 C297A
Kd (SLC39A7 residues 66-74; ITC; with: SAH 2 mM): 31.2 µM

SULT1A3 (Homo sapiens, UniProt P0DMM9)
Vmax/Km (O=C(O[C@@H]1Cc2c(O)cc(O)cc2O[C@@H]1c1cc(O)c(O)c(O)c1)c1cc(O)c(O)c(O)c1; steady-state kinetics; pH 7.4, not purified): 17000 µL/min/mg

DNA 1 AGCGTGGGCGGGTTA / DNA 2 TAACCCGCCCACGC (dsDNA)
binding (WT1 ZF1-4, -KTS, 319-437 M342R (Homo sapiens); fluorescence polarization; double-stranded DNA): binds

CTATGAAGCTTCACAAGAAG (dsDNA)
binding (Heat shock factor protein HSF8; EMSA; double-stranded DNA, one strand shown): binds

AAATAGGTGGGTTGTCATTTCCCAACGCAT (dsDNA)
binding (Ovol1; EMSA; double-stranded DNA, one strand shown): no binding

MYO10 S1066A (Homo sapiens)
relative binding (BTRC; co-IP; HEK293T; with: MG132; baseline: unchanged protein, higher = more binding): 0.44

CUAUUAACGCAAUUACGCAAUAAUAUUUAUAUUAAACUCC (ssRNA)
binding (CTNNB1 full length assumed (Homo sapiens, UniProt P35222); EMSA; RNA): no binding

DNA 1 GTCGACCAGCTGAGTCGACCAGCTG / DNA 2 CAGCTGGTCGAC / DNA 3 CAGCTGGTCGAC (dsDNA; nicked, N6-methyl-dA)
binding (YTHDF2 391-579 (Homo sapiens, UniProt Q9Y5A9); pull-down; double-stranded DNA): binds

ACAGCCTGACAGGG (dsDNA)
binding (WRKY45-1; EMSA; double-stranded DNA, one strand shown): no binding

GGAUUGUGACUGGUAAAGCAGGCAAGACC (ssRNA (Bacillus subtilis); hairpin, two internal loops)
binding (sacT 1-57 (Bacillus subtilis, UniProt P26212); EMSA; folded RNA): binds

TCCTTTAATTTGTCTCTCTGTAAATTTCCTACGTTTCCAATGACAATCATTCCATTTTACG (dsDNA)
binding (cdc6-1 full length assumed (Saccharolobus solfataricus, UniProt Q980N4); EMSA; double-stranded DNA, one strand shown): binds

TTAATGTTGTTTTGTTTCCGCCA (dsDNA)
binding (bin; EMSA; double-stranded DNA, one strand shown; not purified): binds

P1 D213S
Kd (SLC39A7 residues 66-74; ITC; with: SAH 2 mM): 32.4 µM

TTCCGGGTTGCCTATTCAGATT (dsDNA)
binding (bin; competition; double-stranded DNA, one strand shown; not purified): no binding

MYO10 S1060A (Homo sapiens)
relative binding (BTRC; co-IP; HEK293T; with: MG132; baseline: unchanged protein, higher = more binding): 0.64

GGGUAAUGCCCCUCCCCUCUCACACCUCCGGGAUCAGUGACCGGAGGGCGGUCGGGGAGGGGUGUCCU (structured RNA (Pyrococcus abyssi); hairpin, internal loop, K-turn)
binding (truB full length assumed (Pyrococcus abyssi, UniProt Q9V1A5); competition; folded RNA): no binding

TTCCGGGTTGTTTATTCAGATT (dsDNA)
binding (bin; EMSA; double-stranded DNA, one strand shown; not purified): binds

Excerpt of the above:
GGGUAACCAUUAUAACCUGCAAUAAACAACUUAACAACAC (ssRNA)
binding (WDR33 full length assumed; UV cross-linking; RNA; within CPSF complex): binds

TAACAGTCACCCCCCAACTAAC (dsDNA)
binding (TFAM residues 43-220 del221-246 (Homo sapiens, UniProt Q00059); EMSA; double-stranded DNA, one strand shown): binds

CTATGAAGCTTCACAAGAAG (dsDNA)
binding (Heat shock factor protein HSF8; EMSA; double-stranded DNA, one strand shown): binds

TGATATAATCTTGATCATGTTTGTTACACTTGTCA (dsDNA)
binding (Heat shock factor protein HSF8; EMSA; double-stranded DNA, one strand shown): no binding
